Experimental data collected from several papers.
Parts stem from different laboratories: compare values within a part only. Positions count from the first letter of the parent shown.

Block 1
Target: RING finger protein unkempt homolog, zinc fingers 1-6, GST-SBP tag (UNK, Homo sapiens, UniProt Q9C0B0, residues 30-357)
Technique: RNA Bind-n-Seq
Form: RNA
Matrix: in vitro
Concentration: not given
Notes: RNA with constant flanks, human-mouse chimeric sites, ends assumed
Reference: input RNA pool
Direction: higher = stronger binding
Quantity: bound/input enrichment
All sequences stand within: GGGAGUUCUACAGUCCGACGAUC … CAACAGAGGAUUGAGCAUCA
Residues (chain): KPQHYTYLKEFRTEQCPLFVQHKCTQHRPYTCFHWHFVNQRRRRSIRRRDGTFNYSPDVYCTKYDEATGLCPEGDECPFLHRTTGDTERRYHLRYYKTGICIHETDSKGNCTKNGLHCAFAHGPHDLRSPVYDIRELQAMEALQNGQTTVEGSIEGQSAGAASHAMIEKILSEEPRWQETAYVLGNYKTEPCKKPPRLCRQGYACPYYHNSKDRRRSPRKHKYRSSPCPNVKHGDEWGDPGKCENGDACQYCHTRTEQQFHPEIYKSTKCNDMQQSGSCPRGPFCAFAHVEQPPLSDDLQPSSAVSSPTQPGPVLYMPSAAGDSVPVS
GCGGCAGAAUCAUGGAGGACAUGAUGGAGCUCCCCAAGUCGCGCAUCAACGCCAGCAUGUUACCACAGUAUAUCGACCGGCCCGUGUGCUUCGUGGGGAAGCUGGAAAAGAUUCAUCCCA: 0.11 ratio
UUAAUCCCCUUUACUGCUCCACCACUGGUCAUGCUGAUAACAAAGUCUUAUAUCCCCGUCCUAGCUUUCACUCAGAUGGCUUAUGGAGCCGGUUUCCUAGCUUUCUUGGGAGGGAUCAGA: 0.349 ratio
UGACAAGGGCACUGCAGAGCCAUGCCUUUCUUGGACAUACAGAAAAAGCUGGGCAUCAGCCUGGACCGGCACUUUAUAAUCCAGAGUGCAGAACAGCCCUAUAAGAACGCCGCUCGGUGC: 0.0916 ratio
CUGGCACUCUAUCAGAUAUAUUAAUUUUUUAAUGUAGAUGUAAUUUUAAAAAUGAAUGGCUAGUUUACACGUUUAACUAGGCUCUUACUAUAUAUGUGUACAUAUGUAUAUAUAUAUAUA: 2.23 ratio
GGGACUGAUUCAUCCCAAGGACAGGCAACCCCAUUUGAUGCCUGGACUGAUGACAGUAUGGAAGGGCCUAGUCAAAAUGUUGAAGCUGAGUCAAUUCAAGAUAAUGCGAGUAUGGAAGAG: 0.604 ratio
UAUUUUUGACAGCCACACAAUCUUGGCAUGUAUUAAGGAAAAAAAAAAUCCCUGUUGAAGUAGUUUUUCCACCUAUCAGCACUGAGUAAAUGCCAUAACUCCGCGGAAAUGGUCUAAAUA: 0.292 ratio
CCCCACAACCAUUUGCAGGUCUGGAACUGCACUCUCUUUUUUAAAAAACAUGUAUACAUUUUAGGGCUGUAGAUUUAUUUUCCUGGUUUCUUUUCCAAUUGCUGACUUUUGAGCACAGAA: 2.24 ratio
GAAACAUUUAAAUUUAAAGAAGCUGUUGUUCUAGGAAGUACGGACUUCCUAGAAGAUGAUAUAGAAAAAAUUGUAGAAGAACUGGGGAAAGAGUAUAAGGGCAACGCCUACCAUCUGAUG: 1.54 ratio
CUGAAAAACACAGAUAUCAAAGUUGUUGAUUUUGGAAGUGCAACGUAUGAUGAUGAACAUCACAGUACUUUGGUGUCUACCCGGCACUACAGAGCUCCAGAGGUCAUUUUGGCUUUAGGU: 0.419 ratio
CACAGAGGAGACCUCCUGUUCCUCACAAAUUUCCGGGAGGACCCCAUCAGAGCUGGUGAAAUAGUUGUUUUUAAGGUUGAAGGAAGAGACAUUCCGAUAGUUCACAGAGUAAUCAAGGUU: 5.37 ratio
GCUCUUGGGAAUGUAAUCAGCGCCUUGGGGGACAAGAGCAAGAGAGCCACACAUGUCCCUUACAGAGACUCUAAGCUAACAAGACUAUUGCAGGAUUCCCUUGGGGGUAACAGCCAAACC: 0.157 ratio

Block 2
Target: RNA binding protein fox-1 homolog 2, RRM domain, GST-SBP tag (RBFOX2, Homo sapiens, UniProt O43251-10, residues 100-194)
Technique: RNA Bind-n-Seq
Form: RNA
Matrix: in vitro
Concentration: 365 nM
Notes: natural RNA segment, single round, ends assumed
Reference: no-protein control
Direction: higher = stronger binding
Quantity: RBNS enrichment (R)
All sequences stand within: GGGAGUUCUACAGUCCGACGAUC … UGGAAUUCUCGGGUGCCAA
Target sequence (chain): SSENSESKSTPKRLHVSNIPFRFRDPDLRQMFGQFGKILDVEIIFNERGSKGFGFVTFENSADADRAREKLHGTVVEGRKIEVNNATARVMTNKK
GCAUGAAACCAACCGAGUUGAUUUUUAUCUGAGCGCUUGUAGAGGGCUUCGUGUGCCUGUUGGACCAUUAGUUCUUUUAACUGUAUAUGCAAUAACAAGGUUUUAAAAGA: 1.88
GCCACCCACCCACAGAUUUGGUUCGGUUUGGUUGUUUACCAGAUCACAUGAUGUCGAUGUCCCAAGGUGAAGGCAACGUCAGGAGUGCCGCAUGUAGGGAGAUGGAGGGA: 0.715
CUCACUUUCUGCUGUGUGGGCGGCCACAUAAAAAGGCAAUUUUAGUGUAUUAAUCAUAGAUUAUUAUAAACUAUAAACUUAAGGGCAAGGAAUUUAUUACAAUGUAUCUU: 0.404
UGUACAGUUGUCGAAGUGGAGAAAAUGAGGAUAUAUUCUUGCAGACGAGCUAUAGGUCAUACAUGAAUGUCUAGUGAGACAUUCAAAAUUCGUAUAGGGUGCAGAGUAAU: 0.393
UCCCACCCCACCCCGUUUUUUGUCCCUCCGUUUGAUCACCUCCCUGUUGAGUAUGGAAUGUCCCAGUUUAAUAUAAAACAUACAGUUUAUUCCACACAGCAGUUUGACUU: 0.845
UGGGUGUCUGAGGAUGGCAGCACUGUCGCUGACAUUGCCACUUCUCCAAAGAAAGCCAUGCUAAGACUGGGACCAGCCCCUCGUUAGCAUGUCUCCCUGCCACCUGUCAC: 0.34
GUCAACAGUGUGGUUAUGACCUUUAUUUAUAUAAAAACCAAAUAUUUAGUCAAUUUACCGUGUCUUAAUUUAAUCUUUGUACACCUUCCAUUUUUAAGUGCUUAAAUGAG: 0.956
UAUUUUACUAGUCCAAUCACCCCCAGGACCUCUUCAGCUGCUGACAAUCCUAUUUAGCAUAUGCAAAUCUUUUAACAUAGAGAACUGUCACCCUGAGGUAACAGGGUCAA: 0.434
GGUGUGUGUGCCAUGUCACAGCAUGGCCUCUCGGCCUUGGGAAGGAAGGCAGUGCCUGCUCUGCUGUGAGCCGCCAGGAACCCUCCUCCUGUCAAUGGGGGUGUAGUAUU: 0.593
AAAGGACAGGUAUGAUGAUGCGAUAAUAAUAAACAUCUGCGUUUGUCUCUUCACUAAGAGUAAACUGGGAAAUUGUAGGCCAAAGUCCAGUUGAACUUUCUAAGUCUGUG: 0.374
ACCAAAGGAACAAACUCCUUGGUGAAUCUGGAGUUCAGCUUUAGUUUUCAAACACAAUCUGAAAUCUGUUAGUAAAAUGAAUUCUGGGUAAAAAUGAGACUCAAGAGGCA: 0.501
CUGGUCUGCUCAUGCUUCAUUGUCCAGAAAGCAGCAGGAAAUUGUAGUUCCGUUGUCAUCAAGCAGGAAGCAAAUGCAACACCGACCAAGGCAGUUUAGGUCAAGAGCUG: 0.434

Block 3
Target: DDIT3, bZIP domain (human)
Technique: DHFR protein complementation
Matrix: yeast
Notes: single substitutions, most at no-binding floor
Reference: wild-type JUN-FOS pair
Direction: higher = stronger binding
Quantity: binding fitness
Starting sequence: JUN, bZIP domain (human); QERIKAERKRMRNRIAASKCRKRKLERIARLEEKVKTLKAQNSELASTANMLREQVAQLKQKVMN; partner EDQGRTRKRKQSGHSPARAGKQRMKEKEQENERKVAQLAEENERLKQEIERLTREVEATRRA
L59H: -0.277 natural log
Q55F: -0.189 natural log
V35W: -0.0228 natural log
T37S: 0.018 natural log
A40M: -0.0351 natural log
I28S: -0.0995 natural log
A29C: -0.184 natural log
V56R: -0.561 natural log
Q55K: 0.0654 natural log
K39G: -0.201 natural log
E33M: -0.05 natural log
A46Q: 0.0939 natural log
K36H: -0.0453 natural log
V35P: -1.24 natural log
E44Y: -0.255 natural log
E32W: -0.919 natural log

Block 4
Target: CCNE2, cyclin fold, Cln2 fusion (human)
Technique: yeast growth competition, sequencing
Matrix: yeast
Notes: weak parent motif
Reference: not given
Direction: higher = stronger binding
Quantity: normalised enrichment score
Starting sequence: RP1L1 docking peptide (human); TLGLGPLSFTLED; partner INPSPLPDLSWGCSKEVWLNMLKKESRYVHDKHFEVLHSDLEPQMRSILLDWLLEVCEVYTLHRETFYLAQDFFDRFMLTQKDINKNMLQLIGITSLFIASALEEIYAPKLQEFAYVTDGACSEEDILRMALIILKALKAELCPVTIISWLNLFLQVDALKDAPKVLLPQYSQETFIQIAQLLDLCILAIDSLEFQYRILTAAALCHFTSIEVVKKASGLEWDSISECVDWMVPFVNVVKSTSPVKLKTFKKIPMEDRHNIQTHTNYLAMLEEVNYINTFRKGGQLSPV
TLGLGPLAFTLED [S8A]: -0.156
TLGLGPLSFTLAD [E12A]: -0.494
TLGLGPASFTLED [L7A]: -0.0757
TLGLAPLSFTLED [G5A]: -0.134
TLGLGPLSFTLEA [D13A]: -0.0345
TLALGPLSFTLED [G3A]: -0.15
ALGLGPLSFTLED [T1A]: -0.076

Block 5
Target: Histone acetyltransferase KAT6A, both winged helices, GST fusion (KAT6A, Homo sapiens, UniProt Q92794, residues 1-181)
Technique: protein binding microarray
Form: double-stranded DNA, one strand shown
Matrix: in vitro
Concentration: not given
Notes: 8-mer, flanks averaged, mean of 2 arrays, mostly near background
Reference: not given
Direction: higher = stronger binding
Quantity: E-score
Construct (chain): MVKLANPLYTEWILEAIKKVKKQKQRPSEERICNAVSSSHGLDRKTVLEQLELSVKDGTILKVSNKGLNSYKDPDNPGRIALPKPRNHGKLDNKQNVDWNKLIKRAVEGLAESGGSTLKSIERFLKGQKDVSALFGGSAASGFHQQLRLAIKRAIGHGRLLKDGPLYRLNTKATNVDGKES
TCCGGTCA: 0.0671
CCTATTGC: -0.167
TGCATACA: -0.0708
AAAGCGAT: 0.0886
CCACATGA: -0.176
ACCCATAT: -0.112
ATTATCCG: 0.208
CACCATCA: -0.113
AATAACGA: -0.00415
CTTTCGCC: 0.0929
AATCTGCT: -0.177
CCACCTTC: -0.291
CTGGACCC: -0.107
ACATGTGA: -0.0465
ACCATGAA: -0.0501
GAATGCCC: -0.0475
CCCGCACG: 0.227
ACCCAAGG: 0.0381
ATATGCGC: 0.201

Block 6
Target: ABI1, truncated, D143A, DHFR fusion (Arabidopsis thaliana)
Technique: DHFR PCA, deep sequencing
Matrix: yeast
Notes: methotrexate growth selection, single substitutions
Together with: (+)-ABA 2500 µM
Reference: wild-type fitted maximum
Direction: higher = stronger binding
Quantity: relative binding score
Starting sequence: PYL1, truncated, DHFR fusion (Arabidopsis thaliana); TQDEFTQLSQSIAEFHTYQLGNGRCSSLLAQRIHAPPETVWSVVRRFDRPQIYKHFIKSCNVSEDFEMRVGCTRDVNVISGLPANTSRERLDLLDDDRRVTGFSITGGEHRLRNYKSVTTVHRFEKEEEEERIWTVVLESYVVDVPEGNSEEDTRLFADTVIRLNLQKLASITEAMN
Q51C: 84.7%
E125D: 103%
D65H: 101%
E128H: 95.2%
F124I: 95.3%
F56W: 94.3%
S63R: 96.6%
S117D: 32.9%
A35M: 88.5%
P37S: 94.6%
D95E: 102%
P50I: 65.6%
N77K: 94.8%
V44E: 12.8%
T120W: 35.8%
E127H: 93.3%
